Published values pooled from the literature.
Every numbered part comes from another study and shows a few of its results, in no order.

Block 1
Target: Sal-like protein 4, full length isoform B (SALL4, Homo sapiens, UniProt Q9UJQ4-2, residues 1-616)
Method: universal PBM
Molecule type: double-stranded DNA, one strand shown
Sample: in vitro
Concentration: not given
Setting: 8-mer, flanks averaged, mean of replicates
Reading: higher = stronger binding
Target sequence (chain): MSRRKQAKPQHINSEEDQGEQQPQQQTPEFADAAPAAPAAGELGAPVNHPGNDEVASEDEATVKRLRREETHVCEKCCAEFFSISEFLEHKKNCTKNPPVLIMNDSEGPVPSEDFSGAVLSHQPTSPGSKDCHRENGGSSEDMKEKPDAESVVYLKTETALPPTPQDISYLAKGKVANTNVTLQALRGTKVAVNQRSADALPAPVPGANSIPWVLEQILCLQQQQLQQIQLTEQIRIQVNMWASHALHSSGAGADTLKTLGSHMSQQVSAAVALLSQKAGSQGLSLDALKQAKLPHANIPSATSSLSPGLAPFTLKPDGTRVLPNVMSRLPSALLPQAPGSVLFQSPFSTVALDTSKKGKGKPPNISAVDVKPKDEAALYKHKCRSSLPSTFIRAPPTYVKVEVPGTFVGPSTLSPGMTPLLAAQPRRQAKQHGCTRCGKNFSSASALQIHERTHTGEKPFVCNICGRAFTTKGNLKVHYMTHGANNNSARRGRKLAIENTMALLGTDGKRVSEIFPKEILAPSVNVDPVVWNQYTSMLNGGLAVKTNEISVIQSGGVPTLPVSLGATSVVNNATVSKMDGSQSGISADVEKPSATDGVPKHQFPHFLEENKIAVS
Strand | E-score
ACGGCTAG | -0.1
GCTACGGA | -0.114
GAGTGTGA | 0.0348
AGGTCAAC | -0.0476
ATCCTCTC | -0.117
ACCAATAG | 0.119
ACAATCGT | 0.217
GTAGCAGA | 0.0127
ATTACCAA | 0.219
GCGAAGCA | -0.122
AGGATCAT | 0.0818
GCTTTGGA | 0.0175
CCGAACGC | -0.284
CGTATGAC | 0.213
TGACAGAA | 0.122
CGTTTCCC | -0.246
CGCACACC | -0.133
CGGTCCTC | -0.326
CCCGCTAC | -0.168
TACCAGTA | 0.0961
TATTCACA | 0.247
CATTGTCG | 0.0162
ACTACTTC | -0.0134

Block 2
Target: RNA binding protein fox-1 homolog 2, RRM domain, GST-SBP tag (RBFOX2, Homo sapiens, UniProt O43251-10, residues 100-194)
Method: RNA Bind-n-Seq
Molecule type: RNA
Sample: in vitro
Concentration: 365 nM
Setting: natural RNA segment, single round, ends assumed
Reference: no-protein control
Reading: higher = stronger binding
Residues (chain): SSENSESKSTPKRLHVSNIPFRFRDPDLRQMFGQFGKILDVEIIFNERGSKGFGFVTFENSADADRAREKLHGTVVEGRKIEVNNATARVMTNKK
Strand | RBNS enrichment (R)
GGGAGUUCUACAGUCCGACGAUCCUUUCAUAACAUAUUCUACAAGUUUCCUUAAGACUGUUGUUAUAGUCUGGCUGAACCCAUUUCCACCUGCAAAGUCUUGUGUUGUGUCUGCAGGCCACACCAGUGGCCACUGGAAUUCUCGGGUGCCAA | 0.626
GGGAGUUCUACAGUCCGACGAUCUGUUGCCACCCUGUGCUGAGGCCUGAGGCCUCUUCCUCAGCUUUAUCUCCCUUUCCUUCACUCAAGGGCCAUUUCCCCAGUCCCUAUCUCCCCCAUCCCCUCCCGGCUUAUGGAAUUCUCGGGUGCCAA | 0.814
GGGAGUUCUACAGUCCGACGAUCUUGCAUAGAGAGAAAUGAUUGACAGUAAGUUUAUUGUUAAUGGUUCUUACAGAGUAUCUUUAAAAGUGCCUUAGGGGAACCCUGUCCCUCCUAACAAGUGUAUCUCGAUUUGGAAUUCUCGGGUGCCAA | 0.253
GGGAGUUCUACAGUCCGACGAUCUUGAGUCAAGCCUGUCCAGAGUUCCCCUGCUGGACUCCAUCACCACACUCCCCCCAGCCUUCACCUGGCCAUGAAGGACCUUUUGACCAACUCCCUGUCAUUCCUAACCUUGGAAUUCUCGGGUGCCAA | 0.984
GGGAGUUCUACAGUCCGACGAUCAUAUAUAAUAUGUAAUAAACCAGGAUGAAUAUUGCAUAUUCAAUAUCUCCAGUUUUAAUAGUGGCAUUGAAGUGGUUCUGGACCAAAAGAAGUCAGUUUGUGAAUGUUGUUGGAAUUCUCGGGUGCCAA | 3.82
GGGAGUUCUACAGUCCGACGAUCGCAUGUGGGUUAGACCAGGUUAGACCAAUAAAAAGCUAUGUCUUUACUUUAUGGCAUGUGCUUUUCUCCACCGGAGGAGAGAGAGGCAAGUGUCUCCCUCAGCUUGUGUCUGGAAUUCUCGGGUGCCAA | 24.5
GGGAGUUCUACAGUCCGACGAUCGGAAGACAACAGAAACACAAGGAGGCGGCUGUGGCCGGGCUGGACUGUGCUGGGGUUUGUUGUGAUGGCCACUCGGUGACCUGGCGGUCCCUACGCAAUAGCAGCUGCCUUGGAAUUCUCGGGUGCCAA | 0.512
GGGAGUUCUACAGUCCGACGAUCCUUUGGAUUUGUCUCAGUGCCUUAGCAUCUGAAAACCUGUGCUUGUAUAUGUGUGUGUAUGUGUAGGGGCAGCCCCUAUCUCUGGCUCCUUUUCCACCCUUCUCCCCAGUUGGAAUUCUCGGGUGCCAA | 2.59
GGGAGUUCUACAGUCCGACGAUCGGACUCUGCUACACUGUGCCUUUGUGGUCAGCCUCACUGACGGGGUCUGCAAGUAGCCAGGGCGUGUGGGACAAAAGCAGGUCACACGCAGAGCAGGAAAUCAGACCAAGUGGAAUUCUCGGGUGCCAA | 0.495
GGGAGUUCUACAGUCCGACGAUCCAGCACCCAACACCUGCACUGGGCCACAAGCGGGAAAGAACACGGGUUGGUUGCAGUUGAGUUGUUGUCUGGCCGUCUGUAUUUGGAUCUUUAACUGUACUUUGCCUGGCUGGAAUUCUCGGGUGCCAA | 0.913
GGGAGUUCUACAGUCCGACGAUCUCCUGCUGCUGUUACCAGCCAUGUGGGCCCCAUAGGGGCACUGCGCCUGCUGCCCUUUCCUGGCAGGGCUGGUGGAGUCUUCCCUCAAAGCAUGCCUUACCCAGCUGGGAUGGAAUUCUCGGGUGCCAA | 1.02
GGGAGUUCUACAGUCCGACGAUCGAGAAAUGUCCUCAUAUUUGAGGACCAUGAAACAUUGUAGGUAUAUAUGGGGCUUUAGCAAGUUUGAGCAUAGGCUCUUUUUGCUGCCUGUGAGCAGUCCCUCUGGAAAGUGGAAUUCUCGGGUGCCAA | 0.429

Block 3
Target: Protein C-ets-1 (ETS1, Homo sapiens, UniProt P14921, residues 1-441, Y397A, full length assumed)
Method: protein-binding microarray
Molecule type: double-stranded DNA, one strand shown
Sample: in vitro
Concentration: not given
Setting: k-mer, scored over probes, only values ≥0.25
Reading: higher = stronger binding
Construct (chain): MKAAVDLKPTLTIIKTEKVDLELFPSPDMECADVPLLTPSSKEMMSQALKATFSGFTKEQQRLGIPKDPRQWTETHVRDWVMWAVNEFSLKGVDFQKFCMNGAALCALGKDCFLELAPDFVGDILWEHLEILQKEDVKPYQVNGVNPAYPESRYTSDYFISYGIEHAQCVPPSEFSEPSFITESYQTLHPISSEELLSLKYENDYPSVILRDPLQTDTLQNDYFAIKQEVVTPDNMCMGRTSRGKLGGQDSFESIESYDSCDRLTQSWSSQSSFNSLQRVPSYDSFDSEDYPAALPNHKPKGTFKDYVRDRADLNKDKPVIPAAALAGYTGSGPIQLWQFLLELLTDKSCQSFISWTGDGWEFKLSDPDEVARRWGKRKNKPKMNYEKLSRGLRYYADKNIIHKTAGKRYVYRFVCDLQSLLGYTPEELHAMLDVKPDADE
Strand | E-score
ACCGGATA | 0.264
AACGACGG | 0.27
GTCGTCAA | 0.324
CGGATTGC | 0.297
CCGACAAA | 0.404
ATATTGCC | 0.263
TGACAAAA | 0.464
CAACATCC | 0.319
CCGCCAAC | 0.263
CAATTTCC | 0.323
CGACAAAC | 0.329
TACATGTA | 0.283
TGCCGCAA | 0.276
ATATCCGC | 0.299
ATGGCAAA | 0.396
GGCAAAAA | 0.287
CAACATGA | 0.32
AACGACAG | 0.259
CAGCAAAC | 0.331
CGATTGTC | 0.258
CTGTGACA | 0.301
CGCATCCG | 0.303
CGTTGTCA | 0.316
ATCCGCCA | 0.277
GGGGCGGA | 0.384

Block 4
Target: Histone acetyltransferase KAT6A, winged helix 1, GST fusion (KAT6A, Homo sapiens, UniProt Q92794, residues 1-85)
Method: protein binding microarray
Molecule type: double-stranded DNA, one strand shown
Sample: in vitro
Concentration: not given
Setting: 8-mer, flanks averaged, mean of 2 arrays, mostly near background
Reference: not given
Reading: higher = stronger binding
Construct (chain): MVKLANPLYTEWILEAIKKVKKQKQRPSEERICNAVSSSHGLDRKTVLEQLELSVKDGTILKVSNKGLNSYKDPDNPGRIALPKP
Strand | E-score
AGTCAACT | -0.218
CGCCTTCA | 0.234
AAGCACAG | -0.0902
CTGACTCC | -0.0316
GCGCCTAA | 0.223
CGACTGGC | 0.0819
CTTAAGAA | -0.169
CTGTGCCC | -0.121
GCGTCAGA | -0.0254
AGGGCGAA | 0.0112
GTGAGGCA | 0.0131
CAAACAAG | -0.103
TATATCGA | 0.0262
ATATACAT | -0.145
AAAGAGGT | -0.135
ACCGTCTC | 0.0867
CAATACTC | -0.143
CTCGTCTC | -0.0588
ACTTCCAT | -0.0823
CACCGAAA | -0.136
CCACGTGG | -0.0862
AACCACAC | -0.164
ACAATATA | 0.121
CGGCTCCA | 0.245
TAAGCCGA | 0.134

Some of these lines once more (block 4):
Strand | E-score
CTTAAGAA | -0.169
ACCGTCTC | 0.0867
ATATACAT | -0.145
TAAGCCGA | 0.134
AGTCAACT | -0.218
CTCGTCTC | -0.0588
GCGTCAGA | -0.0254
ACAATATA | 0.121
CAATACTC | -0.143
AACCACAC | -0.164
AGGGCGAA | 0.0112
AAAGAGGT | -0.135
